Measured values of several laboratories.
Lines come from different studies, so protocols differ. Numbers after ± are the reported error.
Sequence of UniProt P40939 (whole entry, looked up): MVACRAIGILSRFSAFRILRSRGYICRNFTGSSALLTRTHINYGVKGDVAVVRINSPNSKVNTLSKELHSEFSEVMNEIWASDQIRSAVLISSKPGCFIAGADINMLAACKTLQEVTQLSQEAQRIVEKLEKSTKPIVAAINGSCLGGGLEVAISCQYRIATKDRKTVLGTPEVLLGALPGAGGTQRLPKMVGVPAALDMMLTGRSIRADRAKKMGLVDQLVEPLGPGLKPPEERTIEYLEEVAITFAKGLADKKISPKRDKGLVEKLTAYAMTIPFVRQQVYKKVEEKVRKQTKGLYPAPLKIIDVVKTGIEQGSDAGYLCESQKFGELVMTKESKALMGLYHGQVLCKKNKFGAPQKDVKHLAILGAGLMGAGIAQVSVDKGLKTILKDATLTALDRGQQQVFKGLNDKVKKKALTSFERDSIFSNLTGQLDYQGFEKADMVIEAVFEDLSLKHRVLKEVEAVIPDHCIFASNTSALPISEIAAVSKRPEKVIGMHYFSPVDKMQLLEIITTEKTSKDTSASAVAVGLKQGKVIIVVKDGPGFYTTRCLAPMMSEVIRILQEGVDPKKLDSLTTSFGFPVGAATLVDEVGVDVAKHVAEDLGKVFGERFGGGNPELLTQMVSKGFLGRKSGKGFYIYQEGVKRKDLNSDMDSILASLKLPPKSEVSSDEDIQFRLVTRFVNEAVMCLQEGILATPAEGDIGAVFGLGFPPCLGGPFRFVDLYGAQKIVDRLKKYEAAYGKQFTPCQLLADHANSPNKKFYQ
Sequence of UniProt Q63HM1 (whole entry, looked up): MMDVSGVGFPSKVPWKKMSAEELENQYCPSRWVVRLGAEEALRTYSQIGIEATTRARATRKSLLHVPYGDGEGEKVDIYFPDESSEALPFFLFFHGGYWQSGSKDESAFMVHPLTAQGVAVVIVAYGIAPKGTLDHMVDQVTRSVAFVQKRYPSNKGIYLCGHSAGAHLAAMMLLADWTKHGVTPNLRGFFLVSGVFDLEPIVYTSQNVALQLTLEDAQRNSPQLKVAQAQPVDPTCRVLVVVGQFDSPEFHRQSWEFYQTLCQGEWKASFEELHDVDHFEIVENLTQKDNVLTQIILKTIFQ
Sequence of UniProt O94804 (whole entry, looked up): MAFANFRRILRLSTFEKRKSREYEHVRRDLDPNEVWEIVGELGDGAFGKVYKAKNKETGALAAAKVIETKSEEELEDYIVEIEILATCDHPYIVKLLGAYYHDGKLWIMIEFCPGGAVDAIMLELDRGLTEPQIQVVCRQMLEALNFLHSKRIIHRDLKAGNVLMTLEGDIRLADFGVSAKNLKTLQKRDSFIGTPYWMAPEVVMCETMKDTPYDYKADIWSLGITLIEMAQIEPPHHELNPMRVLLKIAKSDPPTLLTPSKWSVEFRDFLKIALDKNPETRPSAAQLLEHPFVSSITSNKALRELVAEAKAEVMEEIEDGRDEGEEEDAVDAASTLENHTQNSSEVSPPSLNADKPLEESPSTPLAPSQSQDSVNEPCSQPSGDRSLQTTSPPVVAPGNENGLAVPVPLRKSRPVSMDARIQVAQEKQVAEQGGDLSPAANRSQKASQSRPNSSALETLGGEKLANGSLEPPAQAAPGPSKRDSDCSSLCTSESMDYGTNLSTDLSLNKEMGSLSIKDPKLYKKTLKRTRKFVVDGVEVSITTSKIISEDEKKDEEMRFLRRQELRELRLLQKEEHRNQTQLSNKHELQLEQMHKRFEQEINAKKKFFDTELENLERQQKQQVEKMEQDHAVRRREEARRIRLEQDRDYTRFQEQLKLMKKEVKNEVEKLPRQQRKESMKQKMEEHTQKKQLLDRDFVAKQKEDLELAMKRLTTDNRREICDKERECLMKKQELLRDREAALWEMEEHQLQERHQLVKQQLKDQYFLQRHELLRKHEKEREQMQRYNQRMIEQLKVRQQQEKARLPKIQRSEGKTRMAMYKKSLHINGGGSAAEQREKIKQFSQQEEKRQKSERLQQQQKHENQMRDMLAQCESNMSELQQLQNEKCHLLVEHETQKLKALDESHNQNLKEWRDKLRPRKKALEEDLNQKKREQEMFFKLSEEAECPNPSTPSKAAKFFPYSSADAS
Sequence of UniProt Q96RJ0 (whole entry, looked up): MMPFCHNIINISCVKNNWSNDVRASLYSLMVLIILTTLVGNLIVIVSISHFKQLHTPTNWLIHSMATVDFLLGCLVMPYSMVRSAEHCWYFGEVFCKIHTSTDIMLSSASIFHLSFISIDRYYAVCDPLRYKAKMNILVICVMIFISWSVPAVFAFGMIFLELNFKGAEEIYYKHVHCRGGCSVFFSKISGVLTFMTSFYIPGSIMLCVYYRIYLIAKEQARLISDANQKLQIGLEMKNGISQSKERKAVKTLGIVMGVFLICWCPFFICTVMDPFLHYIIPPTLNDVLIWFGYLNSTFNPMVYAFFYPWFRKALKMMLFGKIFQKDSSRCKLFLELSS
Sequence of UniProt Q04759 (whole entry, looked up): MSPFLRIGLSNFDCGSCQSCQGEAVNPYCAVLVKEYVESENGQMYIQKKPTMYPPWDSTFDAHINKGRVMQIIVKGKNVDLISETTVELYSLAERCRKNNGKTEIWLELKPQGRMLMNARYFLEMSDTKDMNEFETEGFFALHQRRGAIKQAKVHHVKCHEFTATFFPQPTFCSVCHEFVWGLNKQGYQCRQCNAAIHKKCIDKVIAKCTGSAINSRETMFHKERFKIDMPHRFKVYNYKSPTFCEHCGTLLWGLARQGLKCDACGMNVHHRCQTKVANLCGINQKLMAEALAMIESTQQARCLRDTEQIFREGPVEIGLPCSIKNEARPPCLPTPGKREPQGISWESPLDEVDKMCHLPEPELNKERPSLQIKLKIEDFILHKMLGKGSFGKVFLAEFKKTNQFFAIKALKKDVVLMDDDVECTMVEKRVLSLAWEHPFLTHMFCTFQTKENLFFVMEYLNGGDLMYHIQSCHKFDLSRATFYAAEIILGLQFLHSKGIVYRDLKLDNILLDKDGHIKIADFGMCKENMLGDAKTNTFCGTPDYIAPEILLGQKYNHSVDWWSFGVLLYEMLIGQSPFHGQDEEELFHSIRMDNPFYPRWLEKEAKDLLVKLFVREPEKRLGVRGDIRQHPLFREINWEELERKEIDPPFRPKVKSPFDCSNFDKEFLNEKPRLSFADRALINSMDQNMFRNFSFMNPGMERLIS
Sequence of UniProt Q8TBX8 (whole entry, looked up): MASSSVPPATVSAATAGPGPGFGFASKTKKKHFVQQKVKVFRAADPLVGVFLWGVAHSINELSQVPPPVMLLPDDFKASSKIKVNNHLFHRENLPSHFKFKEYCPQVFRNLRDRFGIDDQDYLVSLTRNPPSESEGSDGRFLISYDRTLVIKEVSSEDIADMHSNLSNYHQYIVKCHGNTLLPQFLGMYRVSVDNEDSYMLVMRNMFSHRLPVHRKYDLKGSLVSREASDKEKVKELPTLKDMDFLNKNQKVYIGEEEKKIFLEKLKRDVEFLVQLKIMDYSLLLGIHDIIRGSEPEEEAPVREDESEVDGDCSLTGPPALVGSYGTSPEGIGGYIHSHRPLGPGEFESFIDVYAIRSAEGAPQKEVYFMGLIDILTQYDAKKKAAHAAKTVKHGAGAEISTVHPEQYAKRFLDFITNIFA

[2H]c1c([2H])c([C@]2([2H])CCCN2C(=O)C(C)(C)Oc2ccc3cn[nH]c3c2)c([2H])c([2H])c1C([2H])([2H])[2H]  remaining binding (STK10 (Homo sapiens, UniProt O94804); KINOMEscan; 1 µM; reference: DMSO control): 76%
OC[C@H]1O[C@@H](n2ccc3c(SCc4ccc(F)cc4F)ncnc32)[C@H](O)[C@@H]1O  survival (Toxoplasma gondii; [3H]uracil incorporation; human fibroblasts, adenosine kinase deficient; 10 µM): 100%
CNC1(c2ccccc2Cl)CCCCC1=O (racemic)  inhibition (sigma receptor; radioligand binding, agonist, radioligand displacement; 30 µM): 4%
CCN1CCN(Cc2ccc(NC(=O)c3ccc(C)c(Oc4ccnc5[nH]ccc45)c3)cc2C(F)(F)F)CC1  inhibition (PIP4K2C (Homo sapiens, UniProt Q8TBX8); A-375; concentration not given): -23.2%
O=C1C=CC(=O)c2ccccc21  recombination rate constant (Reaction center protein L chain, QB site (pufL, Cereibacter sphaeroides, UniProt P0C0Y8); Rhodobacter sphaeroides, reaction centres; direct QB- to P+ transfer): 0.2 s⁻¹
Cc1ccc(C(=O)N(CCCN)[C@@H](c2nc3cc(Cl)ccc3c(=O)n2Cc2ccccc2)C(C)C)cc1  maximum inhibition (human coronavirus OC43; virus-induced cell killing; MRC-5; maximum over 10 doses): 0%
COc1ccc2c3c1O[C@H]1CC(=O)C=C[C@@]31CCNC2  Km (Leucojum aestivum; N-methylation of narwedine, substrate, LC-MS/MS; together with: SAM 2 mM): 332 ± 28.7 µM
C[C@H]1CN(c2n[nH]c3nc(N[C@H]4CC[C@H](NS(=O)(=O)CCC(F)(F)F)CC4)ncc23)CCO1  relative abundance (HADHA (Homo sapiens, UniProt P40939); inhibitor, Kinobeads competition profiling; 0.032 µM; reference: vehicle): 1.05
O=C(c1ccc(Cl)cc1)N1CCN2C(=O)N(OC(=O)N3CCOc4ccccc43)C(=O)C2C1 (stereo not drawn)  peptide ratio (Kynurenine formamidase (AFMID, Homo sapiens, UniProt Q63HM1); MS-based ABPP; SW-620 conditioned medium; 10 µM, 1 h, 37 °C; reference: compound over DMSO, lower = more inhibition): 1.27
OC[C@H]1O[C@@H](n2ccc3c(SCc4ccc(Cl)c(Cl)c4)ncnc32)[C@H](O)[C@@H]1O  survival (Toxoplasma gondii; [3H]uracil incorporation; human fibroblasts, adenosine kinase deficient; 50 µM): 100%
Oc1ccc2c3c1O[C@H]1[C@@H](O)CC[C@@]4(O)[C@@H](C2)N(CC2CCC2)CC[C@]314  log2 fold change (TAAR1 (Homo sapiens, UniProt Q96RJ0); β-arrestin recruitment, TANGO luminescence, refers to: TA1; concentration not given; reference: basal luminescence): 0.139
COc1ccc(N2C(=O)N(c3c(C)cccc3Cl)Cc3cnc(Nc4ccc(C5CCN(C)CC5)cc4OC)nc32)nc1  inhibition (PRKCQ (Homo sapiens, UniProt Q04759); kinase activity, inhibitor; 0.5 µM, kinase PKC-THETA): 5.46%
Cc1ccc(CSc2ncnc3c2ccn3[C@@H]2O[C@H](CO)[C@@H](O)[C@H]2O)cc1  survival (Toxoplasma gondii; [3H]uracil incorporation; human fibroblasts, adenosine kinase deficient; 10 µM): 100%
CC1(C)CNc2cc(NC(=O)c3cccnc3NCc3ccncc3)ccc21  maximum inhibition (human coronavirus OC43; virus-induced cell killing; MRC-5; maximum over 10 doses): 0%
CC[C@H](C)[C@H](NC(=O)CNC(=O)[C@@H](N)CCCCN)C(=O)N[C@@H](CC(C)C)C(=O)N[C@@H](CCCCN)C(=O)N[C@@H](CCCNC(=N)N)C(=O)N[C@@H](CCC(=O)O)C(=O)N[C@@H](CCCCN)C(=O)N[C@@H](CCCNC(=N)N)C(=O)N[C@@H](CC(C)C)C(=O)N[C@@H](CCCNC(=N)N)C(=O)N[C@@H](CCCNC(=N)N)C(=O)N[C@@H](CCCCN)C(=O)N[C@@H](CC(N)=O)C(=O)N[C@H](C(=O)N[C@@H](Cc1c[nH]cn1)C(=O)N[C@@H](Cc1c[nH]c2ccccc12)C(=O)N1CCC[C@H]1C(=O)N[C@@H](CCC(=O)O)C(=O)N[C@@H](CCC(=O)O)C(=O)NCC(=O)N[C@@H](CCCCN)C(=O)N[C@@H](CC(C)C)C(=O)N[C@@H](CCCNC(=N)N)C(=O)N[C@@H](CCC(=O)O)C(=O)N[C@@H](Cc1ccc(O)cc1)C(=O)N[C@@H](Cc1ccccc1)C(=O)N[C@@H](Cc1ccc(O)cc1)C(=O)N[C@@H](Cc1ccccc1)C(=O)N[C@@H](CCC(=O)O)C(=O)N[C@@H](CC(C)C)C(=O)N[C@@H](CC(=O)O)C(=O)N[C@@H](CCC(=O)O)C(=O)N[C@@H](C)C(=O)N[C@@H](CCC(=O)O)C(=O)N[C@@H](CCCNC(=N)N)C(=O)N[C@H](C(=O)N[C@@H](CC(N)=O)C(=O)N[C@H](C(=O)O)C(C)C)C(C)C)C(C)C  log2 fold change (HeLa and HEK-293T cells; phosphatase bead binding, competitive inhibitor, PIB pulldown iBAQ LC-MS/MS, refers to: PPP4R2; concentration not given; reference: untreated control): 0.14
CC(C)C[C@H](NC(=O)C[C@H](O)[C@H](CC(C)C)NC(=O)[C@H](Cc1c[nH]cn1)NC(=O)CNC(=O)[C@@H](NC(=O)[C@H](C)NC(=O)[C@H](Cc1c[nH]c2ccccc12)NC(=O)[C@H](CCC(N)=O)NC(=O)[C@@H](Cc1ccccc1)NC(=O)CCNC(=O)CCSc1nnc(NCCC(=O)NCCC(=O)NCCCC[C@H](NC(=O)N[C@@H](CCC(=O)O)C(=O)O)C(=O)O)c2c1CCC1C(CC2)C1COC(=O)NCCNC(=O)CC[C@H](C(=O)O)N1CCN(CC(=O)O)CCN(CC(=O)O)CC1)C(C)C)C(N)=O (stereo partly drawn) [gallium-68 labelled]  tissue uptake (athymic NMRI nude mouse, kidneys; intravenous, 533 pmol, 2 h): 17.6 %ID/g
OC[C@H]1O[C@@H](n2ccc3c(SCc4ccc(Cl)cc4Cl)ncnc32)[C@H](O)[C@@H]1O  survival (Toxoplasma gondii; [3H]uracil incorporation; human fibroblasts, adenosine kinase deficient; 10 µM): 100%
CC[C@H](C)[C@H](NC(=O)CNC(=O)[C@@H](N)CCCCN)C(=O)N[C@@H](CC(C)C)C(=O)N[C@@H](CCCCN)C(=O)N[C@@H](CCCNC(=N)N)C(=O)N[C@@H](CCC(=O)O)C(=O)N[C@@H](CCCCN)C(=O)N[C@@H](CCCNC(=N)N)C(=O)N[C@@H](CC(C)C)C(=O)N[C@@H](CCCNC(=N)N)C(=O)N[C@@H](CCCNC(=N)N)C(=O)N[C@@H](CCCCN)C(=O)N[C@@H](CC(N)=O)C(=O)N[C@H](C(=O)N[C@@H](Cc1c[nH]cn1)C(=O)N[C@@H](Cc1c[nH]c2ccccc12)C(=O)N1CCC[C@H]1C(=O)N[C@@H](CCC(=O)O)C(=O)N[C@@H](CCC(=O)O)C(=O)NCC(=O)N[C@@H](CCCCN)C(=O)N[C@@H](CC(C)C)C(=O)N[C@@H](CCCNC(=N)N)C(=O)N[C@@H](CCC(=O)O)C(=O)N[C@@H](Cc1ccccc1)C(=O)N[C@@H](Cc1ccccc1)C(=O)N[C@@H](Cc1ccccc1)C(=O)N[C@@H](Cc1ccccc1)C(=O)N[C@@H](CCC(=O)O)C(=O)N[C@@H](CC(C)C)C(=O)N[C@@H](CC(=O)O)C(=O)N[C@@H](CCC(=O)O)C(=O)N[C@@H](C)C(=O)N[C@@H](CCC(=O)O)C(=O)N[C@@H](CCCNC(=N)N)C(=O)N[C@H](C(=O)N[C@@H](CC(N)=O)C(=O)N[C@H](C(=O)O)C(C)C)C(C)C)C(C)C  log2 fold change (HeLa and HEK-293T cells; phosphatase bead binding, competitive inhibitor, PIB pulldown iBAQ LC-MS/MS, refers to: SLMAP; concentration not given; reference: untreated control): -0.17
